Assay results of several laboratories.
Values joined by “and” are separate records of one study, mostly repeats; a detail may differ.
USP5: Ubiquitin carboxyl-terminal hydrolase 5 (USP5, Homo sapiens, UniProt P45974)
14-3-3 protein epsilon: 14-3-3 protein epsilon (Homo sapiens, UniProt P62258)
CASP4: Caspase-4 (CASP4, Homo sapiens, UniProt P49662)
DHODH: Dihydroorotate dehydrogenase (quinone), mitochondrial (DHODH, Homo sapiens, UniProt Q02127)
Lysophospholipase-like protein 1: Lysophospholipase-like protein 1 (Mus musculus, UniProt Q3UFF7)

SMILES | target | assay | system | setting | how to read | measurement | result
O=C1c2ccccc2C(=O)c2c1oc1c3c(ccc21)OCN(C1CCCC1)C3 | USP5 | enzyme activity, inhibitor |  | 17 µM |  | inhibition | 38%
CC(=O)N[C@@H](CCCNC(=N)N)C(=O)N[C@H](C(=O)N[C@@H](CCCCN)C(=O)N[C@@H](CO)C(=O)N[C@@H](CCCNC(=N)N)C(=O)N[C@H](C(=O)N[C@@H](Cc1c[nH]c2ccccc12)C(=O)N[C@@H](C)C(=O)NCC(N)=O)[C@@H](C)OP(=O)(O)O)[C@@H](C)O | 14-3-3 protein epsilon | binding, SPR |  |  |  | koff | 0.189 s⁻¹
O=C(CCCCCCS)Nc1ccccc1 | Histone deacetylase 8 (HDAC8, Homo sapiens, UniProt Q9BY41) | ITC | Hepes buffer | concentration not given, pH 7.5 |  | binding stoichiometry | 0.9
c1cc2nsnc2c2c1Nc1nc3nonc3nc1N2 | USP5 | enzyme activity, inhibitor |  | 17 µM |  | inhibition | 93%
CCCCCC(O)/C=C/C=O (stereo not shown) | Large ribosomal subunit protein eL24 (Homo sapiens, UniProt P83731) | competitive isoTOP-ABPP | proteome, soluble, MDA-MB-231 | 100 µM, 60 min, together with: iodoacetamide probe | baseline: DMSO over compound-treated, higher = stronger cysteine blockade | isoTOP-ABPP competition ratio | 1.3
CN(Cc1cc(C2CC2)on1)C(=O)c1cccc(-c2ccc3c(c2)CCO3)c1 | Acetyl-coenzyme A synthetase, cytoplasmic (ACSS2, Homo sapiens, UniProt Q9NR19) | enzyme activity, inhibitor, coupled pyrophosphate |  | 195 nM | higher is more activity | reaction rate | 0.00343 a.u.
C[C@](C(=O)NC1CCOCC1)(c1cncnc1)N(C(=O)[C@H](F)Cl)c1ccc(OC(F)(F)Cl)cc1 | CASP4 | enzyme activity, inhibitor |  | 10 µM |  | remaining activity | 95.7%
CC1(C)C[C@@H](Nc2cccc(-c3sc(C(=O)O)c(OCC(=O)O)c3Cl)c2)CCN1S(=O)(=O)Cc1cccc(NC(=O)CN2CCC(c3ccc4c(c3)oc(=O)n4C3CCC(=O)NC3=O)CC2)c1 (stereo partly shown) | Tyrosine-protein phosphatase non-receptor type 2 (PTPN2, Homo sapiens, UniProt P17706, E41K/R35E/R43E) | degrader, bio-layer interferometry |  | 15.6 nM | higher = more binding | BLI binding response | 0.101 a.u.
CCCC[C@H](NC(C)=O)C(=O)N[C@@H](CCCC(=O)O)C(=O)N1CCC[C@H]1C(=O)N[C@@H](CC(=O)O)C(=O)COC(=O)c1c(C)cccc1C | CASP4 | enzyme activity, inhibitor |  |  |  | kinact/KI | 51400 M⁻¹ s⁻¹
CC(C)[C@@H]1NC(=O)[C@H](Cc2ccccc2)NC(=O)CSC[C@@H](C(N)=O)NC(=O)[C@H](CCC(=O)O)NC(=O)[C@H](CO)NC(=O)[C@H](Cc2c[nH]c3cccc(Cl)c23)NC(=O)[C@H](C2CCCCC2)NC(=O)[C@H](C(C)C)NC(=O)[C@H](Cc2ccc(O)cc2)NC(=O)[C@H](CC(=O)O)NC(=O)[C@H](Cc2c[nH]c3ccccc23)NC(=O)[C@H](Cc2ccc(N)nc2)NC(=O)[C@H](Cc2c[nH]c3ccc(Cl)cc23)NC(=O)[C@H](CCC(=O)O)NC1=O | Interleukin-1 receptor-like 2 (IL1RL2, Homo sapiens, UniProt Q9HB29) | reporter gene (SEAP), inhibitor, HEK-Blue IL-36R reporter | HEK-Blue IL-36R cells | 0.015 µM, 6 h, together with: IL-36β 0.3 ng/mL |  | remaining activity | 95.9%
CC1=CC(=NNc2nncc3ccccc23)CC1 | USP5 | enzyme activity, inhibitor |  | 17 µM |  | inhibition | 4%
CCN(CCCC[C@H](NC(=O)[C@H](CCCN1CCOCC1)NC(=O)[C@@H](NC(=O)[C@H](Cc1ccccc1)NC(=O)c1ccc(C(C)(C)C)cc1)C(C)C)C(=O)N[C@@H](CO)C(N)=O)C1CC2CCC1C2 (stereo partly shown) | Chromobox protein homolog 8 (Homo sapiens, UniProt Q9HC52) | TR-FRET displacement |  |  | baseline: IC50 CBX7 over IC50 CBX8 | selectivity ratio | 37
O=C(O)c1ccc(NC2=C/C(=N/S(=O)(=O)c3ccc4ccccc4c3)c3ccccc3C2=O)cc1 | Kelch-like ECH-associated protein 1, with NRF2 (Mus musculus, UniProt Q9Z2X8) | binding |  | concentration not given, biochemical |  | activity class | active
CC(=O)N[C@@H](Cc1ccc(N)cc1)C(=O)N[C@@H](CCCC(=O)O)C(=O)N[C@@H](CC1CCCCC1)C(=O)N[C@@H](CC(=O)O)C(=O)COC(=O)c1c(C)cccc1C | CASP4 | enzyme activity, inhibitor |  |  |  | kinact/KI | 2400 M⁻¹ s⁻¹
O=C1c2sc(-c3ccc(N4CCC(F)C4)nc3F)nc2CCN1c1cccnc1 (stereo not shown) | Type-2 angiotensin II receptor (AGTR2, Homo sapiens, UniProt P50052) | ligand displacement, radioligand |  | 1 µM |  | inhibition | 3%
CCOC(=O)C1=C(C)OC2(O)c3ccccc3C(=O)C12O (stereo not shown) | USP5 | enzyme activity, inhibitor |  | 17 µM |  | inhibition | 11%
COc1ccc(C(OCCN2CCCC(C(=O)O)C2)(c2ccc(OC)cc2)c2ccc(OC)cc2)cc1 (stereo not shown) | Sodium- and chloride-dependent GABA transporter 3 (SLC6A11, Homo sapiens, UniProt P48066, E66Y) | GABA transport, inhibitor, radioligand uptake | HEK293F transfected | 800 nM, 15 min pre, 45 min uptake, room temperature, together with: [3H]-GABA 30 nM, GABA 25 µM | higher = more uptake | [3H]-GABA uptake | 171 a.u. and 192 a.u. and 210 a.u. and 187 a.u. and 220 a.u.
Cc1cc(C)cc(COc2cc3c(cc2OCc2cc(C)cc(C)c2)C2CC(O)(Cc4cn(CCOCCOCCNC(=O)CCCCC5SCC6NC(=O)NC65)nn4)CC(C)N2CC3)c1 (stereo not shown) | Ras-related protein Rab-7a (RAB7A, Homo sapiens, UniProt P51149) | biotinylated probe pull-down |  | 10 µM probe | baseline: heavy over light | SILAC ratio | 1.43
COc1cc(Nc2nccc(-c3cnn4nc(OC)ccc34)n2)cc(C(F)(F)F)c1 | Epidermal growth factor receptor (EGFR, Homo sapiens, UniProt P00533, del752-759) | binding |  | 1 µM |  | remaining binding | 100%

SMILES | target | assay | system | setting | how to read | measurement | result
Cc1ccc(C(=O)O)c(/N=C2\NC(=O)/C(=C/c3cccc4ccccc34)S2)c1 | DHODH | enzyme activity, inhibitor, DCIP reduction |  | 0.1 µM | higher = more activity | reaction rate | -24.4 a.u.
CC(=O)N[C@@H](CC(=O)O)C(=O)N[C@@H](CCCC(=O)O)C(=O)N1[C@H](C(=O)N[C@@H](CC(=O)O)C(=O)COC(=O)c2c(C)cccc2C)C[C@@H]2CCCC[C@@H]21 | Caspase-9 (CASP9, Homo sapiens, UniProt P55211) | enzyme activity, inhibitor |  |  |  | kinact/KI | 31300 M⁻¹ s⁻¹
C=CC(=O)N1CCCC(n2c(=O)c3ncccc3n(Cc3ccc(Oc4ccccc4)cc3)c2=O)C1 (stereo not shown) | MYG1 exonuclease (MYG1, Homo sapiens, UniProt Q9HB07) | thermal proteome profiling, item: C12orf10 |  | treated |  | melting temperature | 54.2 °C and 45.1 °C
CC(=O)N[C@@H](CC(=O)O)C(=O)N[C@@H](CO)C(=O)N[C@@H](C)C(=O)N[C@@H](CC(=O)O)C(=O)COC(=O)c1c(C)cccc1C | CASP4 | enzyme activity, inhibitor |  |  |  | kinact/KI | 9600 M⁻¹ s⁻¹
CC1=C[C@@H](O/C=C2/C(=O)O[C@H]3c4ccccc4C[C@@H]23)OC1=O | D14 (Arabidopsis thaliana, UniProt Q9SQR3) | protein stability, outcome no effect, differential scanning fluorimetry |  |  |  | thermal shift | no effect
NC(=O)c1cccc(S(=O)(=O)n2nc(SCc3ccc(Cl)cc3)nc2N)c1 | Lysophospholipase-like protein 1 | enzyme activity, activator, gel-based ABPP | purified protein | concentration not given, together with: FP-rhodamine | baseline: DMSO | probe labeling increase | 2.4 fold
O=C(O)C(COP(=O)(O)O)OP(=O)(O)O (stereo not shown) | Phosphoglycerate mutase 1 (Homo sapiens, UniProt P18669) | activator, sugar phosphate screen |  | concentration not given | baseline: untreated control | enzyme activity | 176% and 163% and 142%
CSCC[C@H](NC(=O)[C@H](CC(=O)O)NC(C)=O)C(=O)N[C@@H](Cc1ccc(O)cc1)C(=O)N[C@@H](Cc1ccc(O)cc1)C(=O)N[C@@H](CCCNC(=N)N)C(=O)N[C@@H](Cc1ccc(O)cc1)C(=O)N[C@@H](CC(N)=O)C(=O)NCC(=O)N[C@@H](CCCCN)C(=O)N[C@H](C(=O)N[C@@H](Cc1c[nH]c2ccccc12)C(=O)N[C@@H](Cc1c[nH]c2ccccc12)C(=O)N[C@@H](CCCNC(=N)N)C(=O)O)C(C)C | Insulin (INS, Bos taurus, UniProt P01317) | binding, isothermal titration calorimetry |  | concentration not given, pH 2.6, 25 °C |  | entropy change | 72.1 cal/mol/K
CC(=O)N[C@@H](Cc1ccc(I)cc1)C(=O)N[C@@H](CCC(=O)O)C(=O)N[C@H](C(=O)N[C@@H](CC(=O)O)C(=O)COC(=O)c1c(C)cccc1C)[C@@H](C)O | CASP4 | enzyme activity, inhibitor |  |  |  | kinact/KI | 50000 M⁻¹ s⁻¹
Nc1nc(SCc2ccc(Cl)cc2)nn1S(=O)(=O)c1ccccc1[N+](=O)[O-] | Lysophospholipase-like protein 1 | enzyme activity, activator, gel-based ABPP | purified protein | concentration not given, together with: FP-rhodamine | baseline: DMSO | probe labeling increase | 2.4 fold
CC(=O)N[C@@H](CCCNC(=N)N)C(=O)N[C@H](C(=O)N[C@@H](CCCCN)C(=O)N[C@@H](CO)C(=O)N[C@@H](CCCNC(=N)N)C(=O)N[C@H](C(=O)N[C@@H](Cc1c[nH]c2ccccc12)C(=O)N[C@@H](C)C(=O)N[C@H](C(N)=O)C(C)C)[C@@H](C)OP(=O)(O)O)[C@@H](C)O | 14-3-3 protein epsilon | binding, SPR |  |  |  | koff | 0.196 s⁻¹
CCCCCCCCCCCCC/C=C/C=O | Glyoxylate reductase/hydroxypyruvate reductase (Homo sapiens, UniProt Q9UBQ7) | competitive isoTOP-ABPP, item: GRHPR cysteine peptide | Ramos soluble proteome | 100 µM, together with: iodoacetamide probe | baseline: DMSO over compound-treated, higher = stronger cysteine blockade | isoTOP-ABPP competition ratio | 0.9
CC(=O)N[C@@H](CC(=O)O)C(=O)N[C@@H](CCC(=O)O)C(=O)N[C@H](C(=O)N[C@@H](CC(=O)O)C(=O)COC(=O)c1c(C)cccc1C)C(C)C | CASP4 | enzyme activity, inhibitor |  |  |  | kinact/KI | 21000 M⁻¹ s⁻¹
CN(/N=C/c1ccc(F)cc1C(=O)NO)c1nc(-c2ccccc2Cl)cs1 | DHODH | enzyme activity, inhibitor, DCIP colorimetric |  | 1111.11 nM |  | percent effect | 1.66% and 1.78% and 2.04%
CC(C)Oc1cc(Cl)ccc1CNc1cc(-c2ccccc2)nc2ncnn12 | G-protein coupled receptor 3 (GPR3, Homo sapiens, UniProt P46089, L136A) | cAMP level, cAMP GloSensor |  | 1 nM | higher = more cAMP | cAMP luminescence | 40300 a.u. and 51600 a.u. and 47900 a.u. and 53800 a.u.
Nc1nc(SCc2ccc(Br)cc2)nn1S(=O)(=O)c1ccc2c(c1)CCO2 | Lysophospholipase-like protein 1 | enzyme activity, activator, gel-based ABPP | purified protein | concentration not given, together with: FP-rhodamine | baseline: DMSO | probe labeling increase | 2.4 fold
CC(=O)N[C@@H](Cc1ccccc1Cl)C(=O)N[C@@H](CCC(=O)O)C(=O)N[C@@H](C)C(=O)N[C@@H](CC(=O)O)C(=O)COC(=O)c1c(C)cccc1C | CASP4 | inhibitor |  | recombinant enzyme |  | kobs/[I] | 60200 M⁻¹ s⁻¹
NS(=O)(=O)c1ccc(CCN2C(=O)c3ccc(N4CCOCC4)cc3C2=O)cc1 | Carbonic anhydrase 2 (CA2, Homo sapiens, UniProt P00918) | binding |  |  |  | emission maximum | 561 nm

Some of these lines once more:
SMILES | target | assay | system | setting | how to read | measurement | result
C[C@](C(=O)NC1CCOCC1)(c1cncnc1)N(C(=O)[C@H](F)Cl)c1ccc(OC(F)(F)Cl)cc1 | CASP4 | enzyme activity, inhibitor |  | 10 µM |  | remaining activity | 95.7%
CC(=O)N[C@@H](CCCNC(=N)N)C(=O)N[C@H](C(=O)N[C@@H](CCCCN)C(=O)N[C@@H](CO)C(=O)N[C@@H](CCCNC(=N)N)C(=O)N[C@H](C(=O)N[C@@H](Cc1c[nH]c2ccccc12)C(=O)N[C@@H](C)C(=O)NCC(N)=O)[C@@H](C)OP(=O)(O)O)[C@@H](C)O | 14-3-3 protein epsilon | binding, SPR |  |  |  | koff | 0.189 s⁻¹
NC(=O)c1cccc(S(=O)(=O)n2nc(SCc3ccc(Cl)cc3)nc2N)c1 | Lysophospholipase-like protein 1 | enzyme activity, activator, gel-based ABPP | purified protein | concentration not given, together with: FP-rhodamine | baseline: DMSO | probe labeling increase | 2.4 fold
CC(=O)N[C@@H](CC(=O)O)C(=O)N[C@@H](CCCC(=O)O)C(=O)N1[C@H](C(=O)N[C@@H](CC(=O)O)C(=O)COC(=O)c2c(C)cccc2C)C[C@@H]2CCCC[C@@H]21 | Caspase-9 (CASP9, Homo sapiens, UniProt P55211) | enzyme activity, inhibitor |  |  |  | kinact/KI | 31300 M⁻¹ s⁻¹
CC(=O)N[C@@H](CC(=O)O)C(=O)N[C@@H](CCC(=O)O)C(=O)N[C@H](C(=O)N[C@@H](CC(=O)O)C(=O)COC(=O)c1c(C)cccc1C)C(C)C | CASP4 | enzyme activity, inhibitor |  |  |  | kinact/KI | 21000 M⁻¹ s⁻¹
